Measured values from different studies.
Lines come from different studies, so protocols differ. Numbers after ± are the reported error.
AURKA: Aurora kinase A (AURKA, Homo sapiens, UniProt O14965)
Thiamine transporter ThiT: Thiamine transporter ThiT (Lactococcus lactis subsp. cremoris, UniProt A2RI47)

`CCOc1cccc([C@H]2CC(=O)Nc3c2c(C)nn3-c2ccc3nncn3n2)c1` has a Kd of > 73 µM (DDB1 (Homo sapiens, UniProt Q16531); binding, SPR).
`[3H]CC([3H])C(=O)NC1CN(CCCCC2CCN(CC(=O)N3c4ccccc4NC(=O)c4ccccc43)CC2)CCN(CCCOc2nsnc2C2=CCCN(C)C2)C1` (stereo not shown) gave a Kd of 0.0002 ± 3e-05 µM (CHRM2 (Homo sapiens, UniProt P08172); association and dissociation kinetics; CHO cell homogenates; 23 °C).
`COc1c2[nH]c(=O)c(=O)c2c(OC)c2c(=O)c3ccccc3c(=O)c12` has a Kd of 10.5 µM (AURKA; binding, BLI).
With `Cc1ncc(/C=N/NC(=O)c2cc3c(s2)CCCC3)cn1` the Kd was 55 µM (dxs (Deinococcus radiodurans, UniProt Q9RUB5); binding, SPR).
With `O=C(Nc1ccccc1O)c1ccc(-c2ccc(Cl)cc2Cl)o1` the Kd was 2.45 µM (Heat shock protein 90, N-terminal domain (Plasmodium falciparum, UniProt Q8IC05); binding, SPR).
For `CNc1ccccc1C(=O)O[C@H]1C[C@H](n2cnc3c(N)ncnc32)O[C@@H]1COP(=O)(O)OP(=O)(O)O`, the Kd was 4.87 ± 0.33 µM (Unconventional myosin-Va (Gallus gallus, UniProt Q02440, D297C/G292C/I296C/S293C/V295G); binding, ligand, stopped-flow FRET; 4 °C, with: 4 mM EDTA).
The Kd of `O=C1c2ccc(O)cc2-c2c(-c3ccc(O)cc3)oc3cc(O)cc1c23` is reported as 13.8 µM (Heat shock protein HSP 90-alpha, N-terminal domain (HSP90AA1, Homo sapiens, UniProt P07900); binding, fluorescence polarization; N-terminal domain fragment).
The Kd of `CC(=O)N[C@@H]1[C@@H](O[C@@H]2O[C@H](C(=O)O)[C@@H](O[C@@H]3O[C@H](COS(=O)(=O)O)[C@@H](OS(=O)(=O)O)[C@H](O[C@@H]4O[C@H](C(=O)O)[C@@H](O[C@@H]5O[C@H](COS(=O)(=O)O)[C@@H](OS(=O)(=O)O)[C@H](O[C@@H]6O[C@H](C(=O)O)[C@@H](OS(=O)(=O)O)[C@H](OS(=O)(=O)O)[C@H]6OS(=O)(=O)O)[C@H]5NC(C)=O)[C@H](OS(=O)(=O)O)[C@H]4OS(=O)(=O)O)[C@H]3NC(C)=O)[C@H](OS(=O)(=O)O)[C@H]2OS(=O)(=O)O)[C@H](OS(=O)(=O)O)[C@@H](COS(=O)(=O)O)O[C@H]1N=[N+]=[N-]` is reported as 0.75 µM (CXCL12 (Homo sapiens, UniProt P48061); ligand displacement, FP).
The Kd of `C=C(CC(O)C(=O)O)C(=O)O` (racemic) is reported as 0.3 µM (Methylcytosine dioxygenase TET2, catalytic domain (TET2, Homo sapiens, UniProt Q6N021); binding, microscale thermophoresis).
The Kd of `Cc1ncc(Cc2csc(C=NNC(=O)[C@@H](N)Cc3c[nH]c4ccccc34)c2C)c(N)n1` (mixture of isomers) is reported as 44.5 µM (Thiamine transporter ThiT; binding, ITC).
The Kd of `COC(=O)CC[C@H](NC(=O)[C@H](C)NC(=O)[C@@H](C)O[C@H]1[C@H](O)[C@@H](CN)OC(O)[C@@H]1NC(C)=O)C(N)=O` (stereo partly shown) is reported as 0.002 to 0.01 µM (NOD2 (Homo sapiens, UniProt Q9HC29); binding; pH 6.5).
The Kd of `CN(C)CCCSC(=S)N1CCN(C(=O)/C=C/c2coc3ccccc3c2=O)CC1` is reported as 7.6 µM (Nucleoprotein (N, Tomato spotted wilt virus, UniProt P25999); binding, biolayer interferometry; wild-type nucleocapsid protein).
With `CC[C@H](C)[C@H](NC(=O)[C@H](Cc1ccc(O)cc1)NC(=O)[C@@H](NC(=O)[C@H](Cc1ccc(OP(=O)(O)O)cc1)NC(=O)[C@H](CC(N)=O)NC(=O)[C@H](CC(N)=O)NC(=O)CNC(=O)[C@@H](N)CC(N)=O)C(C)C)C(=O)N[C@@H](CC(=O)O)C(=O)N1CCC[C@H]1C(=O)N[C@H](C(=O)N[C@@H](CCC(N)=O)C(=O)N[C@@H](CC(=O)O)C(=O)O)[C@@H](C)O` the Kd was ~1 µM (SH2 domain-containing protein 1B, SH2 domain (SH2D1B, Homo sapiens, UniProt O14796); binding, fluorescence polarization; phosphopeptide probe).
For `Cc1ncc(Cc2csc(C=NNC(=O)Cc3ccccc3)c2C)c(N)n1` (mixture of isomers), the Kd was 20.9 µM (Thiamine transporter ThiT; binding, ITC).
`Cc1oc2c(O)c3c(c(O)c2c1C(=O)N1CCC(N)C1)C(=O)c1ccccc1C3=O` (stereo not shown) has a Kd of 55.7 µM (AURKA; binding, BLI).
`C[C@H](CCC(=O)NCCc1ccc(-c2ccccc2)cc1)[C@H]1CC[C@H]2[C@@H]3CC[C@@H]4CC(=O)CC[C@]4(C)[C@H]3CC[C@]12C` gave a Kd of 0.0874 µM (RORC (Homo sapiens, UniProt P51449); binding, MST).
For `N=C(N)NCCC[C@H](NC(=O)[C@H](CS)NC(=O)[C@H](Cc1ccc(O)cc1)NC(=O)[C@H](Cc1c[nH]c2ccccc12)NC(=O)[C@H](CCCNC(=N)N)NC(=O)[C@H](Cc1c[nH]c2ccccc12)NC(=O)CNC(=O)[C@H](Cc1c[nH]cn1)NC(=O)CNC(=O)CN)C(N)=O`, the Kd was 4.1 ± 0.5 µM (supercoiled pUC19 plasmid DNA; tryptophan fluorescence; per base pair, 1 mM TCEP).
For `Nc1nc2c(-c3c(C(F)(F)F)cc4c(N5CCNCC5)nc(OCC56CCCN5CCC6)nc4c3F)ccc(F)c2s1`, the Kd was 0.009 µM (GTPase KRas, GDP-bound (KRAS, Homo sapiens, UniProt P01116, G12D); SPR).
The Kd of `C[C@H](N)C(=O)N[C@@H](CCCNC(=N)N)C(=O)N[C@H](C(=O)N[C@@H](CCCCN)C(=O)N[C@@H](CCC(N)=O)C(=O)N[C@H](C(=O)N[C@@H](C)C(=O)N[C@@H](CCCNC(=N)N)C(=O)N[C@@H](CCCCN)C(=O)N[C@@H](CO)C(=O)N[C@H](C(=O)NCC(=O)O)[C@@H](C)O)[C@@H](C)O)[C@@H](C)O` is reported as 10.6 µM (WDR5 (Homo sapiens, UniProt P61964); binding, ITC; pH 8).
`O=C1c2ccccc2C(=O)c2c1c(O)c1nc(Cc3ccccc3)[nH]c1c2O` gave a Kd of 23.3 ± 3 µM (AURKA; binding, tryptophan fluorescence quenching; pH 7.5, 25 °C, AurA 3.0 µM).
With `C[C@H](N)C(=O)N[C@@H](CCCNC(=N)N)C(=O)N[C@H](C(=O)N[C@@H](CCCC[N+](C)(C)C)C(=O)N[C@@H](CCC(N)=O)C(=O)N[C@H](C(=O)N[C@@H](C)C(=O)N[C@@H](CCCNC(=N)N)C(=O)N[C@@H](CCCCN)C(=O)N[C@@H](CO)C(=O)N[C@H](C(=O)NCC(=O)O)[C@@H](C)O)[C@@H](C)O)[C@@H](C)O` the Kd was ~0.64 µM (MORC family CW-type zinc finger protein 3, CW domain (MORC3, Homo sapiens, UniProt Q14149); binding, tryptophan fluorescence).
For `Cc1ccc(CCN2COc3c(cc(F)c4cccnc34)C2)cc1`, the Kd was 6.7 µM (Large ribosomal subunit protein uL10 (rplJ, Escherichia coli, UniProt P0A7J3); binding).
Under Kd, `CCCC[C@@H]1NC(=O)[C@H](Cc2ccc(O)cc2)NC(=O)[C@@H]2CCCN2C(=O)[C@H](CC(=O)O)NC(=O)[C@H](C)NC(=O)[C@H](Cc2ccccc2)NC(=O)[C@@H]2CSCCC(=O)N3CN(CN(C3)C(=O)CCSC[C@@H](C(=O)N[C@@H](C)C(N)=O)NC1=O)C(=O)CCSC[C@H](NC(C)=O)C(=O)N[C@@H](CC(C)(C)C)C(=O)N1CCC[C@H]1C(=O)N[C@@H](CCC(=O)O)C(=O)N[C@H](CCCCNC(=O)CCc1cn(CCOCCOCCOCCN(CCOCCOCCOCCC(=O)N[C@H]3CSCCC(=O)N4CN5CN(C4)C(=O)CCSC[C@H](NC(=O)[C@@H](CC(=O)O)NC(=O)[C@H](Cc4cccc6ccccc46)NC(=O)[C@@H]4CCCN4C3=O)C(=O)N[C@@H](CCSC)C(=O)N[C@@H](CCCCNC(=N)N)C(=O)N[C@@H](CC(=O)O)C(=O)N[C@@H](Cc3c[nH]c4ccccc34)C(=O)N[C@@H](CO)C(=O)N[C@@H]([C@@H](C)O)C(=O)N3CCC[C@H]3C(=O)N3C[C@H](O)C[C@H]3C(=O)N[C@@H](Cc3c[nH]c4ccccc34)C(=O)N[C@H](C(N)=O)CSCCC5=O)CCOCCOCCOCCn3cc(CCC(=O)NCCCC[C@H]4NC(=O)[C@H](CCC(=O)O)NC(=O)[C@@H]5CCCN5C(=O)[C@H](CC(C)(C)C)NC(=O)[C@@H](NC(C)=O)CSCCC(=O)N5CN6CN(C5)C(=O)CCSC[C@H](NC(=O)[C@H](Cc5ccc(O)cc5)NC(=O)[C@@H]5CCCN5C4=O)C(=O)N[C@@H](Cc4ccccc4)C(=O)N[C@@H](C)C(=O)N[C@@H](CC(=O)O)C(=O)N4CCC[C@H]4C(=O)N[C@@H](Cc4ccc(O)cc4)C(=O)N[C@@H](CCCC)C(=O)N[C@H](C(=O)N[C@@H](C)C(N)=O)CSCCC6=O)nn3)nn1)C(=O)N1CCC[C@H]1C(=O)N[C@@H](Cc1ccc(O)cc1)C(=O)N2` is recorded as “no binding” (CD137, rat; SPR; with: captured on human Nectin-4).
`CN(C)CCNC(=O)c1cccc2c(NCCCCc3c(N)nc(N)nc3N)c3ccccc3nc12` has a Kd of 7690 ± 280 µM (RNA with G–G mismatch; binding, ITC; 25 °C, 2).
`C[C@@H](NC(=O)[C@H](Cc1ccccc1)NC(=O)[C@H](CCCNC(N)=O)NC(=O)CNC(=O)[C@@H]1C[C@@H](O)CN1C(=O)[C@H](CC1CCCCC1)NC(=O)[C@H](Cc1ccc(O)cc1)NC(=O)CCCCCNC(=O)CCC(C(=O)O)N1CCN(CC(=O)O)CCN(CC(=O)O)CC1)C(=O)N1Cc2ccccc2C[C@H]1C(=O)N[C@@H](CO)C(=O)O` (stereo partly shown) [copper-64 labelled] gave a Kd of 0.192 µM (Chemerin-like receptor 1 (Mus musculus, UniProt P97468); binding, radioligand; HeLa transfected; 1 h).
